# Experimental data collected from several papers.
# Each numbered part is a random draw from the data of one study; scales do not carry over between parts. Positions count from the first letter of the parent shown.

# Block 1
# Target: Interferon regulatory factor 3, full length, phosphomimetic (IRF3, Homo sapiens, UniProt Q14653, residues 1-427, S386D/S396D/S398D/S402D/T404D/S405D)
# Chain of UniProt Q14653 (whole entry, unmodified, looked up): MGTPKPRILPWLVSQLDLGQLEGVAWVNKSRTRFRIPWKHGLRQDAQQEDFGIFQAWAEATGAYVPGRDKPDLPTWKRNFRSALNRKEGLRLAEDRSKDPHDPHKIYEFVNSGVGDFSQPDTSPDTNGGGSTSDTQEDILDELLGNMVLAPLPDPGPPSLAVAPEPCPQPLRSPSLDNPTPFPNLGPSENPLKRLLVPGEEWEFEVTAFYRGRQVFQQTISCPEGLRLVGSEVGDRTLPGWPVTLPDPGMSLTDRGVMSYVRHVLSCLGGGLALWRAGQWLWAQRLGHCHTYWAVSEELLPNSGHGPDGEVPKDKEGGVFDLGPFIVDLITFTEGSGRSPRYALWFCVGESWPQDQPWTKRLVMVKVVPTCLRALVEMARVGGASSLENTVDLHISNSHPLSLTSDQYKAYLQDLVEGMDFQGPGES
# Method: protein-binding microarray
# Form: double-stranded DNA, one strand shown
# Sample: in vitro
# Tested at: 2540 nM top
# Setting: 60-bp whole probe
# Added: salmon DNA 0.4 mg/ml
# Baseline: random background probes
# Direction: higher = stronger binding
# All sequences stand within: GCCTAGCAC … GTCTTGATTCGCTTGACGCTGCTG
Strand,fitted relative affinity [z-score]
TTAGGTTACCTTTCCCTTTAGTGCTAG,7.5
TCACTTTTCCATTTTGTACTGTGCTAG,3.65
GCATTTTTTTTTTCTACTTCGTGCTAG,1.43
GGCGGACTGCTTATCCTGACGTGCTAG,-0.484
GACGGTTCCGGTTTCGTGACGTGCTAG,5.15
TTACGACTGGACACTGGGTTAGTGCTA,-0.733
GACGAAGTGGGGTATCGAGACGTGCTA,-0.635
GAGGATTTCGGGACTGGAGACGTGCTA,0.492
GACGCTATCGGACTGGGGACGTGCTAG,-0.234
TCAGATCTCAGACTGTGACTGTGCTAG,0.609
ATGTTCACTGTGTACCGTCTGTGCTAG,0.295
TTAGATATCGGGTTTCGATTTGTGCTA,3.17
TACGATTTCGGGTATCGAGACGTGCTA,1.34
TCATCTATCTTAAATAGGACTGTGCTA,1.04
TCAACTTTCCACTTGTCACTGTGCTAG,2.62
GACGGACTAGGGTATCGGGACGTGCTA,-0.255
TTAGATCTCAGTATCGATTTGTGCTAG,1.84
GACGGTCTACTTCTCCTGACGTGCTAG,0.67
GACGGTCTCGGAATGGGGACGTGCTAG,0.796

# Block 2
# Target: Sal-like protein 4, full length isoform B (SALL4, Homo sapiens, UniProt Q9UJQ4-2, residues 1-616)
# Method: universal PBM
# Form: double-stranded DNA, one strand shown
# Sample: in vitro
# Tested at: not given
# Setting: 8-mer, flanks averaged, mean of replicates
# Direction: higher = stronger binding
# Residues (chain): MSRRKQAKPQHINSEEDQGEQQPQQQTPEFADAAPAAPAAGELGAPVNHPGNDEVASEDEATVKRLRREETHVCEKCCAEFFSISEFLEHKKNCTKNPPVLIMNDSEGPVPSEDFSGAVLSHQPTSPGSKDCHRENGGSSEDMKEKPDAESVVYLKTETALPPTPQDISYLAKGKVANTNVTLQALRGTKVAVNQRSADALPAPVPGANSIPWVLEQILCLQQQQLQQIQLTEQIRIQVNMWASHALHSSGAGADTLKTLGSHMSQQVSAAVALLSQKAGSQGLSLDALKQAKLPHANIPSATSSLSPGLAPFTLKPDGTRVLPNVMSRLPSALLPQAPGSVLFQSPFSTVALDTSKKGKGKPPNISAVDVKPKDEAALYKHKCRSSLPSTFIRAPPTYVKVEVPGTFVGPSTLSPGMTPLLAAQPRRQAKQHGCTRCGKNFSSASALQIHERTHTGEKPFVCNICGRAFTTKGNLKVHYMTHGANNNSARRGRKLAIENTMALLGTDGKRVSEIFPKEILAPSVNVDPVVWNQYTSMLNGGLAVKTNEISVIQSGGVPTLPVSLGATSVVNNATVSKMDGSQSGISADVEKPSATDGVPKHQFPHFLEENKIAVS
Strand,E-score
AGGCGGTA,-0.207
GCGACTTA,-0.0546
ACACATTC,0.131
AAAGCGAC,-0.0847
CTGTGCCA,-0.164
AGTAACTA,0.126
ACCTTTAA,0.106
CGGCTCCC,-0.387
AACCCATT,0.0472
AGTCAATG,0.0649
AATACACC,0.16
GTAGACAC,-0.0996
GATCGCAC,-0.0773
TGCCTCAA,0.00205
ATACCTGA,0.192

# Block 3
# Target: CCNB2, cyclin fold, Cln2 fusion (human)
# Method: yeast growth competition, sequencing
# Sample: yeast
# Setting: strong parent motif
# Baseline: not given
# Direction: higher = stronger binding
# Parent: BRCA2 docking peptide (human); PSIKRNLLNEFDR; partner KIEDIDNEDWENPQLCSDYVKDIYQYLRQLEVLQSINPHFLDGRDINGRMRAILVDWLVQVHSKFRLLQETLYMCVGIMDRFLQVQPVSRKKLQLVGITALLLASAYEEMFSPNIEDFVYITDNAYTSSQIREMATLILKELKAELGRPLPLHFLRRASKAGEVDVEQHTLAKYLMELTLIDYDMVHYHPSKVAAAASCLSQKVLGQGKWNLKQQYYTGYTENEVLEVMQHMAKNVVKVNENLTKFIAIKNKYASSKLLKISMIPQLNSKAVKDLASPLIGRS
Variant,normalised enrichment score
PSIKRNLLNMFDR [E10M],0.579
PSIKRNLNNEFDR [L8N],1.22
PSIKRNLDNEFDR [L8D],0.73
PIIKRNLLNEFDR [S2I],2.71
PWIKRNLLNEFDR [S2W],1.53
PSIKRNLLNEIDR [F11I],1.51
PSIKWNLLNEFDR [R5W],0.227
PSIKRNILNEFDR [L7I],0.971
PSIKRNLLNDFDR [E10D],3.91

# Other studies, line by line
Molecule,target,test,test system,setting,scale,endpoint,value
"PhoQ, residues 284 288 289 292 302 303 SCKMEA","PhoP, residues 12 14 15 18 19 VHTVL (Escherichia coli, UniProt P23836)","Sort-seq, refers to: YFP reporter",E. coli,"PhoQ-PhoP variant library, added: 10 µM Mg2+","baseline: high Mg2+ state, higher = stronger signaling",fold induction,6.34

# Repeated from above (block 2):
Strand,E-score
AAAGCGAC,-0.0847
AATACACC,0.16
AGGCGGTA,-0.207
GATCGCAC,-0.0773
CTGTGCCA,-0.164
TGCCTCAA,0.00205
AGTAACTA,0.126
